Measurements collected from several papers.
Every numbered part comes from another study and shows a few of its results, in no order. Changes are numbered by the printed parent chain.
Sequence of UniProt Q9H4B4 (whole entry, looked up): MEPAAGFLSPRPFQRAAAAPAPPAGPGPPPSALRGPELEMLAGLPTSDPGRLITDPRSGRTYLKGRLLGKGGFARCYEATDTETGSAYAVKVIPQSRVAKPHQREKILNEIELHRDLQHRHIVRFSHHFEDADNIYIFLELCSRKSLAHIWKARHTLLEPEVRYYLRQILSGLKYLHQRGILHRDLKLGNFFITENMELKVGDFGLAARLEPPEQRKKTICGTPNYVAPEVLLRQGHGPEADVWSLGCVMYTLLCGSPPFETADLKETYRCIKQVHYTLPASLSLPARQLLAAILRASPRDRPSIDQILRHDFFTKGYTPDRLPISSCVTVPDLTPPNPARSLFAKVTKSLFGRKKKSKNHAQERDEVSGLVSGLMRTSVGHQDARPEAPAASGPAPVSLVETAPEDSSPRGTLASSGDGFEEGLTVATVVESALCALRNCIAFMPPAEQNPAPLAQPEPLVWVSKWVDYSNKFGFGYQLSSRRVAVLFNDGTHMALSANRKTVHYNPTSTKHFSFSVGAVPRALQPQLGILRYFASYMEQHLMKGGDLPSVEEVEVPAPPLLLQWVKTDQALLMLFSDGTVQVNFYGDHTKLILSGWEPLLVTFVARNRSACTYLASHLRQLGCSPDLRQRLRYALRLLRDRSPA
Sequence of UniProt Q02763 (whole entry, looked up): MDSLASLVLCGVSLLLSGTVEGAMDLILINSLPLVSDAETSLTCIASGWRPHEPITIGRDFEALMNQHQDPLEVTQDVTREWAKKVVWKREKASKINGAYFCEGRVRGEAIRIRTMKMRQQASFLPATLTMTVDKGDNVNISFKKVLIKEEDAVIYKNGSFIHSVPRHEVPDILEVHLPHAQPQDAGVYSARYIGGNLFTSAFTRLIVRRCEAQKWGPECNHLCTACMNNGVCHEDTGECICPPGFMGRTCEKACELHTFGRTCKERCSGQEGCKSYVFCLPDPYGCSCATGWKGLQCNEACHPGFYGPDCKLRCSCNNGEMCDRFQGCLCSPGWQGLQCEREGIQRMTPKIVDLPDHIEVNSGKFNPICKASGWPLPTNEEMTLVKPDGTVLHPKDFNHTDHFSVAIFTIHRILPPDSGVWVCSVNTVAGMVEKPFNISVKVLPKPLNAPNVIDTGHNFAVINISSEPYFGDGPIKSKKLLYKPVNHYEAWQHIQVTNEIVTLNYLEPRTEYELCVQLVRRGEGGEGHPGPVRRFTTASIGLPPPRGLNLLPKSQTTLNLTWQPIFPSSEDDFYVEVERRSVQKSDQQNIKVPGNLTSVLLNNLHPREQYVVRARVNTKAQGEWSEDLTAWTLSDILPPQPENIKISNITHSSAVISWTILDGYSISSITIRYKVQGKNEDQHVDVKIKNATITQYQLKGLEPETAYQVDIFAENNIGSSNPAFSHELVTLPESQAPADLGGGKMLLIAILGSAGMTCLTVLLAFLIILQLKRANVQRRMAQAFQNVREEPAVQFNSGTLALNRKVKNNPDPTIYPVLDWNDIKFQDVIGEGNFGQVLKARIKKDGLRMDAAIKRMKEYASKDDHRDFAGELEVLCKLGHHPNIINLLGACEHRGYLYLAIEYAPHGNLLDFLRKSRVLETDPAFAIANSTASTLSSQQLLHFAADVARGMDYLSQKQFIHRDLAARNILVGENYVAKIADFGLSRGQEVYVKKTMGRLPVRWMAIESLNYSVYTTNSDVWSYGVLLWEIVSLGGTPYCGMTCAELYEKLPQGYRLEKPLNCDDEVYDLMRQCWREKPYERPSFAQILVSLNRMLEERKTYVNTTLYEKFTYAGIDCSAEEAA
Sequence of UniProt Q16832 (whole entry, looked up): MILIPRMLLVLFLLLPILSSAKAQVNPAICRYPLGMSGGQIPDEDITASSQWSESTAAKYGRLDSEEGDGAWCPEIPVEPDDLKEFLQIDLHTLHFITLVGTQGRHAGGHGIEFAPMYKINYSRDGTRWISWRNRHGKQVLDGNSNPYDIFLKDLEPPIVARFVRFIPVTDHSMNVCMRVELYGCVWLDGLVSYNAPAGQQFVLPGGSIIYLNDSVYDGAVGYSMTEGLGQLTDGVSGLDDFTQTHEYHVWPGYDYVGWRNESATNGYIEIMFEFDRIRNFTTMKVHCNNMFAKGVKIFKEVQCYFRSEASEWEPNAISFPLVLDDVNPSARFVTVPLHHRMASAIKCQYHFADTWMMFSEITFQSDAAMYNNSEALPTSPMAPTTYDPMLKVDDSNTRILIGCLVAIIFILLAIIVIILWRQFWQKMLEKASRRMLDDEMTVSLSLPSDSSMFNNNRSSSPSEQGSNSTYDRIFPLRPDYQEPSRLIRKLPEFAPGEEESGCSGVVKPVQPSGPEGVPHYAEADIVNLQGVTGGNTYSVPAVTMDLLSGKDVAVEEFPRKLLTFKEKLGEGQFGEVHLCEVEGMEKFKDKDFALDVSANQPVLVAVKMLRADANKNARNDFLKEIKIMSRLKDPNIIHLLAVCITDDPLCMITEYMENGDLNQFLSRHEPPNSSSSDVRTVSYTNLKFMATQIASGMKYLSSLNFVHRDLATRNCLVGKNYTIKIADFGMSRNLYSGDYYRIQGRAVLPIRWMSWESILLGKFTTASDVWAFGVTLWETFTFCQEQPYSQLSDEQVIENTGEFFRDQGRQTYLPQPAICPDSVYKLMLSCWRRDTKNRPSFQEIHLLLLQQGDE
Sequence of UniProt P06493 (whole entry, looked up): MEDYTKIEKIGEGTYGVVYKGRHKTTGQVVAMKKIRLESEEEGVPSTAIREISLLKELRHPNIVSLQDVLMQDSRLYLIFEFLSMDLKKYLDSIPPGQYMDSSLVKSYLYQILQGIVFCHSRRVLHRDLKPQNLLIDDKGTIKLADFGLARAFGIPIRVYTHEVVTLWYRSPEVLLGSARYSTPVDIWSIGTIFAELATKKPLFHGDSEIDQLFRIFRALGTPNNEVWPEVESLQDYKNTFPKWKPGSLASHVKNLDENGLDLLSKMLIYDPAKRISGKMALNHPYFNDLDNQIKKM
Sequence of UniProt O75914 (whole entry, looked up): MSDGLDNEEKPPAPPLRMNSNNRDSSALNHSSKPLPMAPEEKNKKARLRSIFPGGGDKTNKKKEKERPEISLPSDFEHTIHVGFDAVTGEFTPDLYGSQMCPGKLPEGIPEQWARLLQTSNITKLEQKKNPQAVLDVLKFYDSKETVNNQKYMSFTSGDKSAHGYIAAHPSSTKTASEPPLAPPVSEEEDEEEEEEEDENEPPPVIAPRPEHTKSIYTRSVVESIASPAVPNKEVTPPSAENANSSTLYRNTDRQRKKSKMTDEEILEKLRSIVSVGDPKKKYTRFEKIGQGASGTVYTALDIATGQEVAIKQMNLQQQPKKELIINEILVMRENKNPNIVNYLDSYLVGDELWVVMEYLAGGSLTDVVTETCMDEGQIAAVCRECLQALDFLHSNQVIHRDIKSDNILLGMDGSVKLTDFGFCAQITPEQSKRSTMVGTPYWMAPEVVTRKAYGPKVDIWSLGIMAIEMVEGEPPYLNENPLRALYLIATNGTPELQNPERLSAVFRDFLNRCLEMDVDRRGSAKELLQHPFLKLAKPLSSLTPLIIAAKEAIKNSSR
Sequence of UniProt P06241 (whole entry, looked up): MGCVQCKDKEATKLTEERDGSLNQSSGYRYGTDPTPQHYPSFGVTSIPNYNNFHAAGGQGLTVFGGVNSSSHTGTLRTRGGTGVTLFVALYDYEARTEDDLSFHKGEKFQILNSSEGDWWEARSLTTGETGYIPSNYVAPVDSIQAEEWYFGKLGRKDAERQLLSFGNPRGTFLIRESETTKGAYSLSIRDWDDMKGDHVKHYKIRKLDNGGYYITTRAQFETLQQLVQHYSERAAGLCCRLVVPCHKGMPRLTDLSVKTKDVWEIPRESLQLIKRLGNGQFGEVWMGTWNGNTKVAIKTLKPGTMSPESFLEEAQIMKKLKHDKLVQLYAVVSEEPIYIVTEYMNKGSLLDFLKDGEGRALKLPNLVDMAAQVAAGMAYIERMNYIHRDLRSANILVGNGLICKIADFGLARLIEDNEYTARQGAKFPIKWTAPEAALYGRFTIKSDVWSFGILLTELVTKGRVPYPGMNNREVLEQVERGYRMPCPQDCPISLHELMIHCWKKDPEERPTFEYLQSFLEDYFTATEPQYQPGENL
Sequence of UniProt Q13237 (whole entry, looked up): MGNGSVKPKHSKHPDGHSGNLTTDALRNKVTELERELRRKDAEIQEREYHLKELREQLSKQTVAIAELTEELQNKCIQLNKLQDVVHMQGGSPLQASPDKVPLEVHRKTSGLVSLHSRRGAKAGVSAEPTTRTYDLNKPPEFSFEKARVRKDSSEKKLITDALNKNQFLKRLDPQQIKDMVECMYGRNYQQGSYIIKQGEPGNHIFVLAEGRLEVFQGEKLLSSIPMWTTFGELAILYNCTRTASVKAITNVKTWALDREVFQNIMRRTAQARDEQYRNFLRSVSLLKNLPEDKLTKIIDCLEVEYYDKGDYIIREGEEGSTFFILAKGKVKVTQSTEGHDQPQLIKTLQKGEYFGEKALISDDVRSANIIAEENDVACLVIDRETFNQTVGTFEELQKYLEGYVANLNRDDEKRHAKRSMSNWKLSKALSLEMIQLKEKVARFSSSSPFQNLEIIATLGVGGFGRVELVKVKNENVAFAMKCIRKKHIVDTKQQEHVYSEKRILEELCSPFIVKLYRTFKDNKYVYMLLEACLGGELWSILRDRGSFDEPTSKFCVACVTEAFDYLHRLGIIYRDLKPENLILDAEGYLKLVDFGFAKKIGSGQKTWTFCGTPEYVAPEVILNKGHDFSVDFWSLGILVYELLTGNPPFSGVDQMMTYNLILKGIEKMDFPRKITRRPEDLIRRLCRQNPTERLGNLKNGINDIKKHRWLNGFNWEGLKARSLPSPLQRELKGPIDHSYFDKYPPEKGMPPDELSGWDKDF

Sample 1
Compound: c1ccc(N2CCN(Cc3nc4ccccc4[nH]3)CC2)nc1
Method: competition with immobilised ligand
Concentration: 1 µM
PIP5K1A (Homo sapiens, UniProt Q99755); cell-free assay — remaining binding: 79%.
The remaining binding was 94% (TEK (Homo sapiens, UniProt Q02763); cell-free assay).
MAK (Homo sapiens, UniProt P20794); binding — remaining binding: 100%.
It gave 100% for remaining binding (FYN (Homo sapiens, UniProt P06241); binding).

Sample 2
Target: ABI1, truncated, D143A, DHFR fusion (Arabidopsis thaliana)
Method: DHFR PCA, deep sequencing
Matrix: yeast
Notes: methotrexate growth selection, single substitutions
With: (+)-ABA 0.39 µM
Reference: wild-type fitted maximum
Direction: higher = stronger binding
Starting sequence: PYL1, truncated, DHFR fusion (Arabidopsis thaliana); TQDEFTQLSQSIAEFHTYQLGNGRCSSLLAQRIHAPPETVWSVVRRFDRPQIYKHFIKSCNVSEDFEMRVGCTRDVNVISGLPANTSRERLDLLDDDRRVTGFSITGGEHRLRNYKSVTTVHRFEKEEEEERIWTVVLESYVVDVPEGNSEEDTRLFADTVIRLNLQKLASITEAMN; partner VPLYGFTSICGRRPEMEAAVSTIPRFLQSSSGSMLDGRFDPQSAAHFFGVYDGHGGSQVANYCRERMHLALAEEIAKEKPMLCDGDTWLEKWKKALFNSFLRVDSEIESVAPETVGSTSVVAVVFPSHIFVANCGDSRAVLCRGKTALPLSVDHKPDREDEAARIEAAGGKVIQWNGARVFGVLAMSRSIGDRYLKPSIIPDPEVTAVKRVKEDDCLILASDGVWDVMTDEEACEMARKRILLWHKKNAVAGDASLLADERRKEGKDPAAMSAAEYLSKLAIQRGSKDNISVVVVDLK
`V143H` — result for “relative binding score”: -2.95%.
`R123P`: “relative binding score” 40.4%.
Under “relative binding score”, `T160G` is recorded as -8.11%.
`R88D`: “relative binding score” -0.803%.
For `Q19F`, “relative binding score” read 7.5%.
`E139T`: “relative binding score” 61%.
For `L138K`, “relative binding score” read -8.17%.
Under “relative binding score”, `V76N` is recorded as -7.79%.

Sample 3
SMILES: CCOc1cc2ncnc(Nc3cccc(Br)c3)c2cc1OCC
Read-out: enzyme activity
Action: inhibitor
Concentration: 0.5 µM
Reference: control
MAP2K1 (Homo sapiens, UniProt Q02750) — remaining activity: 96.1%.
It gave 98.7% for remaining activity (CAMK4 (Homo sapiens, UniProt Q16566)).
MET (Homo sapiens, UniProt P08581) — remaining activity: 78.6%.
For NEK3 (Homo sapiens, UniProt P51956): remaining activity read 100%.
The remaining activity was 97.1% (PLK3 (Homo sapiens, UniProt Q9H4B4)).
PRKG2 (Homo sapiens, UniProt Q13237) — remaining activity: 83.9%.
It gave 83.1% for remaining activity (CLK4 (Homo sapiens, UniProt Q9HAZ1)).
It gave 100% for remaining activity (DDR2 (Homo sapiens, UniProt Q16832)).
The remaining activity was 94.7% (Cyclin-dependent kinase 1, with cyclin A (CDK1, Homo sapiens, UniProt P06493)).
It gave 94.5% for remaining activity (MARK2 (Homo sapiens, UniProt Q7KZI7)).
It gave 97.6% for remaining activity (PAK3 (Homo sapiens, UniProt O75914)).
It gave 99.5% for remaining activity (DCLK2 (Homo sapiens, UniProt Q8N568)).
The remaining activity was 102% (Cyclin-dependent kinase 9, with cyclin K (CDK9, Homo sapiens, UniProt P50750)).

Further values, each from its own experiment
Under “half-life of parasite killing”, `CN(C(=O)c1ccn2ncc(-c3ccc(C(N)=O)cc3)c2c1)c1ccc(C#N)cn1` is recorded as 19.5 h (Cryptosporidium parvum; time-kill, one-phase decay fit; nanoluciferase-expressing; 0.247 µM).

Some of these lines once more (sample 3):
The remaining activity was 97.1% (PLK3 (Homo sapiens, UniProt Q9H4B4)).
PRKG2 (Homo sapiens, UniProt Q13237) — remaining activity: 83.9%.
